Assay results pooled from the literature.
Parts stem from different laboratories: compare values within a part only.

Block 1 — technique: RNA Bind-n-Seq; molecule type: RNA; sample: in vitro; concentration: 365 nM; baseline: no-protein control; reading: higher = stronger binding; measurement: RBNS enrichment (R)
Target: RNA binding protein fox-1 homolog 2, RRM domain, GST-SBP tag (RBFOX2, Homo sapiens, UniProt O43251-10, residues 100-194)
Notes: natural RNA segment, single round, ends assumed
Target sequence (chain): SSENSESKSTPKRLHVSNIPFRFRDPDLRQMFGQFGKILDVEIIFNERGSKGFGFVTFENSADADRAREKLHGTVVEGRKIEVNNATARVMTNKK
Sequence = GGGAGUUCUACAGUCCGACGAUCCUUUUCCUUUUUAAUCCCCUCUUAGCACUUCUGUGAGUGGAGAGGACAUUAAGUAAAAUUUGGAAUCAUAAGUUGCAAUGCAGUAAAAUGGUGCUGGGGAAGGAGCCAGUUGGAAUUCUCGGGUGCCAA; value = 0.498
Sequence = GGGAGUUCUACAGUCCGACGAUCUGUCAGAAAUGUACAAUUUUAGGGUAUGUUUAGAUUAAAUAUUUUUUAUUUUUAAGUUACCAGGCACUUUUCAUGCUAUUUAAGACUAUAUAUCAAAUUGUGCACUUUAAUGGAAUUCUCGGGUGCCAA; value = 0.738
Sequence = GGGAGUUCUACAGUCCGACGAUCGGUUGACAUGAUACACUAUGGCCUUAGAAAAGGGCCAGGUGAAACCCCAAGCUAAUCACUGCGGUCUUUCAGAGCCGGACAGACAGGUGCCAGCAGAGCCCGGGGCUCACUGGAAUUCUCGGGUGCCAA; value = 0.448
Sequence = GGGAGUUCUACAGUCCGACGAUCCCGUGCUAGUUUCCCGAGUUCAGACUCUCAGCUUUGGUUUGGUUUUGGUUUUGGUUUUUUGUUCUUCAUACUCAAGUGUCUCCGUUGGUCCAGAUACUUCUCUGUGAAAGUGGAAUUCUCGGGUGCCAA; value = 1.03
Sequence = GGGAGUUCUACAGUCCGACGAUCAGGUGAGAGUAUUUAUUUUUGGUAUGGCUGGCUCACUGCACAGACUCUGUGUUUAUGUGUGUGUGUCUGUGUGAGAGAAGAAAAAUCUGUAGAGAAGAGGCACGCUUAUGUGGAAUUCUCGGGUGCCAA; value = 2.09
Sequence = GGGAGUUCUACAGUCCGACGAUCAGCUGUUUUUCUGCUCCUUUGUGGAAGGCAGUUAUGAUCAGGCUGCAUGGACAAAGCAGGUAGAGGGGCACCAUCAGGGGCUCUUGCACUAUUUUCACCUCUAAAUAUUAUGGAAUUCUCGGGUGCCAA; value = 0.698
Sequence = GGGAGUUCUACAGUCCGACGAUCAUGAAGGAUCUCAUUGGACGUCCUGUCAAUCAUUAAUCUACAUGCAGGCUUGUUCCCACACUACCUCUUUAAAGCGAUUCUUCCUAUGCUGGUCUGUUCAAUCCUGCCCUUGGAAUUCUCGGGUGCCAA; value = 0.512
Sequence = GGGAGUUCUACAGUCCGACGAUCCCAUCAUUUGCAGUUUGCAUGUGGGGAAACCAAAGCCCUAAGAAACAACAGUUCCUGGCCCAAAAAAUCCAUAGAAAGAGGUAACUAGUGGCAGAUUUGGGGCGCCAACCUGGAAUUCUCGGGUGCCAA; value = 1.07
Sequence = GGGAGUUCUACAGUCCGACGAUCUUUGAAGUCAGUGGUUUAGAAAUGAGAUACCAAUGUUAAUGAAAAGUAUGUACUCUUUGCUUUUGCAUGGCUUGGCUUAGUAUCCAAGGUAUAUUAGAGCCACUUGAAAGUGGAAUUCUCGGGUGCCAA; value = 3.08
Sequence = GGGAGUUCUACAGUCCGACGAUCAACUCCCAUCUGAGGUGGGUACCACCCCUUCCUCAGUACCCACCGUGGAUACUGCAUGUGAACUAUGGUUUUGAACUCUUCCUCCUCCUCCUUGAGAGCCCCGCCCUGCGUGGAAUUCUCGGGUGCCAA; value = 12.6
Sequence = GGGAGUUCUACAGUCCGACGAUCACCCUUGCAAAGUAAACAGCUUUCCCAGGUUCCAAGGCCAGUUUUCACUGCUAAGGACCGGAAGGACCCCUGCAUUGACACUCACCAGUACCGAGAAGGUCUAAGUAAAAUGGAAUUCUCGGGUGCCAA; value = 0.3
Sequence = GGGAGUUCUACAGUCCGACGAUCUUCCAAGCUUUGUGUGAAACUUGAUGACAUUGGGCCAGCAAAAUGCAAAGAAGACUAUAGUUUCAGGCAGAAAAUCACGUCCAAAGAAUUUGGCAUGGAUUAAACAACCUUGGAAUUCUCGGGUGCCAA; value = 0.269

Block 2 — technique: RNAcompete; molecule type: RNA; sample: in vitro; concentration: 20 nM; notes: 7-mer, probes averaged, single round; baseline: mean of 7-mers; reading: higher = stronger binding; measurement: 7-mer Z-score
Target: PABPC1L2, full length, GST fusion (mouse, UniProt A0ABA7IW68)
Construct (chain): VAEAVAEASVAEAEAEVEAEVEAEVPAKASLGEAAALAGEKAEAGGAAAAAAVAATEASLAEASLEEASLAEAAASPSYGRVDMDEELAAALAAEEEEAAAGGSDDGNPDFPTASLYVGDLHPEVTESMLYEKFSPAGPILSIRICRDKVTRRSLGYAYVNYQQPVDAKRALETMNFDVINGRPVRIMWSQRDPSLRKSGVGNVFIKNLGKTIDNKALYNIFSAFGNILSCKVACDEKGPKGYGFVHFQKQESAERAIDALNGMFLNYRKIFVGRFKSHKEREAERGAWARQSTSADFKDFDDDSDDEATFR
Sequence = AACAGCC; value = 0.456
Sequence = CAGGUCA; value = 0.00254
Sequence = ACCGGGU; value = -0.0536
Sequence = GCGGGGC; value = 0.157
Sequence = UGAAAAC; value = 1.84
Sequence = CAGUCAU; value = -0.327
Sequence = UCUGGAC; value = -0.188
Sequence = CUCGGAG; value = -0.0355
Sequence = UGGUUUU; value = -0.38
Sequence = UUGUGCC; value = -0.354
Sequence = GAUCAGG; value = -0.0518
Sequence = CCAAUUG; value = -0.358
Sequence = UAAAGAU; value = 1.12
Sequence = ACGCUGC; value = -0.202
Sequence = UACGUUG; value = -0.15
Sequence = UGGAAGG; value = 0.231
Sequence = UUAACCC; value = -0.291

Block 3 — technique: protein-binding microarray; molecule type: hairpin DNA; sample: in vitro; concentration: not given; baseline: not given; reading: higher = stronger binding; measurement: median fluorescence
Target: Interferon regulatory factor 1, DNA-binding domain (IRF1, Homo sapiens, UniProt P10914, residues 1-114)
Notes: whole hairpin DNA, median over replicate spots
Target sequence (chain): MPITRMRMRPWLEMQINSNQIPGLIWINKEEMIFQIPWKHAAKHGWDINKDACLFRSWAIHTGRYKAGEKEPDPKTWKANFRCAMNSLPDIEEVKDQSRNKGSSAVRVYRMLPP
Sequence = GAGGCCCGCGAGCGAAACGCCTCCTGGCGTTTCGCTCGCGGGCCTCACAC; value = 523 a.u.
Sequence = GAGGCCCGAAAGCTAAACGCCTCCTGGCGTTTAGCTTTCGGGCCTCACAC; value = 486 a.u.
Sequence = GAGGCCCGACGGCGAAACGCCTCCTGGCGTTTCGCCGTCGGGCCTCACAC (5mC at 10 36); value = 506 a.u.
Sequence = GAGGCCCGAACGTGAAACGCCTCCTGGCGTTTCACGTTCGGGCCTCACAC (5mC at 11); value = 535 a.u.
Sequence = GAGGCCCGAAACGGAAACGCCTCCTGGCGTTTCCGTTTCGGGCCTCACAC (5mC at 34); value = 532 a.u.
Sequence = GAGGCCCGACAGCGAAACGCCTCCTGGCGTTTCGCTGTCGGGCCTCACAC (5mC at 10); value = 516 a.u.
Sequence = GAGGCCCGAAAGTAAAACGCCTCCTGGCGTTTTACTTTCGGGCCTCACAC; value = 546 a.u.
Sequence = GAGGCCCGAAAGCGCGACGCCTCCTGGCGTCGCGCTTTCGGGCCTCACAC (5mC at 15 31); value = 534 a.u.
Sequence = GAGGCCCGAAAGTGAAAAGCCTCCTGGCTTTTCACTTTCGGGCCTCACAC; value = 911 a.u.
Sequence = GAGGCCCGAAAGCGAAACGCCTCCTGGCGTTTCGCTTTCGGGCCTCACAC; value = 1910 a.u.
Sequence = GAGGCCCGAAGGCGAAACGCCTCCTGGCGTTTCGCCTTCGGGCCTCACAC; value = 550 a.u.
Sequence = GAGGCCCGAAAGCGAGACGCCTCCTGGCGTCTCGCTTTCGGGCCTCACAC; value = 470 a.u.
Sequence = GAGGCCCGAAAGTGAACGGCCTCCTGGCCGTTCACTTTCGGGCCTCACAC; value = 536 a.u.
Sequence = GAGGCCCGAAAGCGAAACGCCTCCTGGCGTTTCGCTTTCGGGCCTCACAC (5mC at 7 39); value = 1150 a.u.
Sequence = GAGGCCCGAAAGTGCGACGCCTCCTGGCGTCGCACTTTCGGGCCTCACAC (5mC at 15); value = 502 a.u.
Sequence = GAGGCCCGCAAGTGAAACGCCTCCTGGCGTTTCACTTGCGGGCCTCACAC (5mC at 9); value = 592 a.u.
Sequence = GAGGCCGGAAAGCGAAACGCCTCCTGGCGTTTCGCTTTCCGGCCTCACAC (5mC at 40); value = 1200 a.u.
Sequence = GAGGCCCGAAAGTGAACCGCCTCCTGGCGGTTCACTTTCGGGCCTCACAC (5mC at 17); value = 534 a.u.
Sequence = GAGGCCCGAAGGTGAAACGCCTCCTGGCGTTTCACCTTCGGGCCTCACAC (5mC at 36); value = 526 a.u.
Sequence = GAGGCCCGAAAGTGAAAGGCCTCCTGGCCTTTCACTTTCGGGCCTCACAC; value = 1710 a.u.
Sequence = GAGGCCCGAGAGCGAAACGCCTCCTGGCGTTTCGCTCTCGGGCCTCACAC; value = 516 a.u.
Sequence = GAGGCCCGGAAGTGAAACGCCTCCTGGCGTTTCACTTCCGGGCCTCACAC (5mC at 38); value = 656 a.u.
Sequence = GAGGCCCGAAAGCGCGACGCCTCCTGGCGTCGCGCTTTCGGGCCTCACAC (5mC at 15); value = 522 a.u.
Sequence = GAGGCCCGAAGGCGAAACGCCTCCTGGCGTTTCGCCTTCGGGCCTCACAC (5mC at 36); value = 570 a.u.

Block 4 — technique: protein-binding microarray; molecule type: double-stranded DNA, one strand shown; sample: in vitro; concentration: 940 nM top; notes: 60-bp whole probe; together with: salmon DNA 0.4 mg/ml; baseline: random background probes; reading: higher = stronger binding; measurement: fitted relative affinity; constant ends, left off below: GCCTAGCAC … GTCTTGATTCGCTTGACGCTGCTG
Target: Interferon regulatory factor 5, full length, phosphomimetic (IRF5, Homo sapiens, UniProt Q13568-2, residues 1-514, S451D/S453D/S456D/S462D)
Sequence = TTAGGTTTCGGACTGGCTTAGTGCTAG; value = 7.85 z-score
Sequence = TTAAGCCCACTATCTAGCCCGTGCTAG; value = -0.248 z-score
Sequence = TCATGGGTCTTGTCTGGAACTGTGCTA; value = 0.0482 z-score
Sequence = TCAGGTTCTCTTTTATTACTGTGCTAG; value = 1.18 z-score
Sequence = CAGCCTTTGCCTCATCTTGCAGTGCTA; value = 0.351 z-score
Sequence = GACGATTTCGGGTGTCGAGACGTGCTA; value = 0.486 z-score
Sequence = TCACTGGTCACTCTCTGACTGTGCTAG; value = 0.411 z-score
Sequence = TCACTAGTGTTTTTCTCACTGTGCTAG; value = 0.414 z-score
Sequence = TCCCCTCTAGGTTCTCTGAAAGTGCTA; value = -0.0303 z-score
Sequence = TTAGGCCTGGGGTTTCGGTTAGTGCTA; value = 5.33 z-score
Sequence = TTAGGTTTGGACACTGGGTTAGTGCTA; value = -0.0347 z-score
Sequence = TCATATATATTATATATTACTGTGCTA; value = 0.206 z-score
Sequence = TTAGATATCGGGTATCGATTTGTGCTA; value = 2.82 z-score
Sequence = TGGGATTTTCCCATGAGTCTGTGCTAG; value = -0.146 z-score
Sequence = GGCGATATCGGGTTTCGAGACGTGCTA; value = 2.34 z-score
Sequence = GACTGTCTCGGTATCGGGACGTGCTAG; value = 4.53 z-score
Sequence = TTAGATTTAGGGTATCGATTAGTGCTA; value = 1.77 z-score
Sequence = TCAGTCTTCAGGTTCTCACTGTGCTAG; value = 0.442 z-score
Sequence = TCACATTTTGTTTTTCAACTGTGCTAG; value = 1.2 z-score
Sequence = TCATCTCTGTCCCTGTTACTGTGCTAG; value = 1.85 z-score
Sequence = GACGATTTCGGGACTGGAGATGTGCTA; value = 0.338 z-score
Sequence = TTAGAACTGAGAATGGATTAGTGCTAG; value = 0.298 z-score
Sequence = TTAGATTTCGGTTCCGATTAGTGCTAG; value = 3.21 z-score
Sequence = TTAGTTTTCGACACTGGGTTAGTGCTA; value = 1.78 z-score
Sequence = TCATTTATACCTTAGGTACTGTGCTAG; value = -0.039 z-score

Repeated from above (block 4):
Sequence = TTAAGCCCACTATCTAGCCCGTGCTAG; value = -0.248 z-score
Sequence = TCATGGGTCTTGTCTGGAACTGTGCTA; value = 0.0482 z-score
Sequence = TCAGGTTCTCTTTTATTACTGTGCTAG; value = 1.18 z-score
Sequence = CAGCCTTTGCCTCATCTTGCAGTGCTA; value = 0.351 z-score
Sequence = GACGATTTCGGGTGTCGAGACGTGCTA; value = 0.486 z-score
Sequence = TCACTGGTCACTCTCTGACTGTGCTAG; value = 0.411 z-score
Sequence = TCACTAGTGTTTTTCTCACTGTGCTAG; value = 0.414 z-score
Sequence = TCCCCTCTAGGTTCTCTGAAAGTGCTA; value = -0.0303 z-score
Sequence = TTAGGCCTGGGGTTTCGGTTAGTGCTA; value = 5.33 z-score
